Experimental data pooled from the literature.
Each numbered part is a random draw from the data of one study; scales do not carry over between parts.

Set 1 — method: RNA Bind-n-Seq; molecule type: RNA; sample: in vitro; concentration: 365 nM; relative to: no-protein control; direction: higher = stronger binding; quantity: RBNS enrichment (R)
Target: RNA binding protein fox-1 homolog 2, RRM domain, GST-SBP tag (RBFOX2, Homo sapiens, UniProt O43251-10, residues 100-194)
Setting: natural RNA segment, single round, ends assumed
Target sequence (chain): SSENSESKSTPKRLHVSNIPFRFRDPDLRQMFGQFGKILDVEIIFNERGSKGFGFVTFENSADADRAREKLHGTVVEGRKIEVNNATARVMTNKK
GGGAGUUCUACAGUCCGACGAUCGGCUUUGCCCCCGUGGAUUUGUCAGACUUCGUGGAGCAGUGUUAAGGUGGACAUGGGAUUCCUCACUGGGAAGAGAGUUUUUCCCAUGCAGAGAGCCCCAUUAUCUCCUCUGGAAUUCUCGGGUGCCAA: 0.373
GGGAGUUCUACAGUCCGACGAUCAGAUCCAAAGGGAAAUUCUAGAGAUCUCUUAGUAAUGUAGUAAGGCAGGCCUUCUUCUUCCGGAGUUGGUGAUUCUAACUUUAGAAGUUCCAGGUUGUGGGCUAUGGUAUUGGAAUUCUCGGGUGCCAA: 0.467
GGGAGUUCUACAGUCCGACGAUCUCGGAGAGUGCUGCUAAAAUUGGAUUGGUGUGAUCUUUUUGGUAGUUGUAAUUUAACAGAAAAACACAAAAUUUCAACCAUUCUUAAUGUUACGUCCUCCCCCCACCCCCUGGAAUUCUCGGGUGCCAA: 0.302
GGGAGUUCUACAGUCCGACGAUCAUGGCCAGAUGGCCUGUAGGAAGAGCUACCAGGGCUUCCAGACCUGUGGAACGAAGAGGAUGGGGAAAAGGCAGAGGGCACUGAGUGUCCCUUUAAAAACUAACCCACUGUGGAAUUCUCGGGUGCCAA: 0.336
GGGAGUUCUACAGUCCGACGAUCGACCUUCCUCUAUCCCCUGCCCAUCCUCCCUUUUACCUCCUCUCUUUUUUAAACACCUGUUUAUCCCAACCUUUUUGAGCUCAAGCUGUGAUAAAGAAGGGCCCAUCCUAUGGAAUUCUCGGGUGCCAA: 0.702
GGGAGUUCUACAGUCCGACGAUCUGCUCACCUGGCUCUGGAGGGCUGCCCUGCAGCUGGGCCUGGGGACAGGUCGGCUGUGGGGCAGCUCAGUACCCUCCCUGAGGCUCACGGUGGCUCCGAGCAUGAGGUCCUGGAAUUCUCGGGUGCCAA: 1.46
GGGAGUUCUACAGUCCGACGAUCUGAAAGGCGAGCAGAAGCAGCAUGGACAAGAAGGCUGGGGCUGGCCCUGGGGCUCAUCAUGAUGCUUUCCUGGAUCUGUUGCUUCAUCUGCAAGCUGAGGGUGUUUGUUCUGGAAUUCUCGGGUGCCAA: 0.335
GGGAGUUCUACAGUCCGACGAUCCUACACCAUCUGGUGAGGAACCAAGGCCACCUCUGUGCCGGGAAAGACAUCACAUACCUUCAGCACUUCUCACAAUGUAACUGCUUUAGUCAUAUUAACCUGAAGUUGCAUGGAAUUCUCGGGUGCCAA: 0.304
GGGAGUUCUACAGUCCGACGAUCCCCACUUUGGAUUGGUGGAAGUAAAAACUGGUAACUCACUCAAGUGAAUGAAUGGUCUUGCAUUUUAAAAGCUUAUGGGAAACUCAAUUUGAAAUGAUUAGAAAAUGUCAUGGAAUUCUCGGGUGCCAA: 1.06
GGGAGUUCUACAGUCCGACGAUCCAGCUGCUGCUGCUGUCGUCUGCCCGCCAUUCAGCUAACCGUUCUGUUGAGGUCCUGCCUUGUGCUUUCCUAGUGGAAGCCGUCCUUUGCCCCCGUUGAUGACUUGAGCCUGGAAUUCUCGGGUGCCAA: 0.389
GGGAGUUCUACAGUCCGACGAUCCCUCCUCCCCCAACGCAUCCCAGCCAGUGCCAUGUCCUCUGCAGGUGGAGUUACUGGCCUACUCCUUCCCCAUGAGCCCUCCCUGUCUGCACUGCCCAGGCCAGAGGGUAUGGAAUUCUCGGGUGCCAA: 1.67
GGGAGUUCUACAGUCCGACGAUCCCACAGGGCAGGGAAGGGGGUGGCUGGGCCUCCUGGCUGGCAAAGGGCUCUACUUAAAGCACAUGAUGUAGAGCAACUCGCCUCUGCCCUGGGUCUGCAGAAGGCUGAGGUGGAAUUCUCGGGUGCCAA: 2.92

Set 2 — method: universal PBM; molecule type: double-stranded DNA, one strand shown; sample: in vitro; concentration: not given; direction: higher = stronger binding; quantity: E-score
Target: Sal-like protein 4, full length isoform B (SALL4, Homo sapiens, UniProt Q9UJQ4-2, residues 1-616)
Setting: 8-mer, flanks averaged, mean of replicates
CGCCTGTA: -0.0248
AGGGGTCC: -0.339
AGAGACCG: -0.242
ACAGGTGA: 0.107
CCGCACAC: -0.205
ATTTTAAC: 0.204
GAAATAAC: 0.176
GTATGACA: 0.313
GATTCTGA: -0.016
TAAAAGTA: 0.275
GCTACCGA: -0.0995
AGTCGCAG: -0.11
CAACGAAG: -0.0284
ATCACCCC: -0.0141
AATCCCAA: 0.0825
AGACGACA: -0.0352
AAAGAAAA: 0.242
GATTGGTA: 0.134
CGCGTTAG: -0.0676
ACCTGAAC: -0.0991
GAACTAGA: 0.0694
CAGACTCG: -0.123
GACTAACC: -0.197
GGGATGGA: -0.232

Set 3 — method: EMSA with sequencing; molecule type: double-stranded DNA, one strand shown; sample: in vitro; concentration: 10 and 20 nM; relative to: negative control set to 0; direction: higher = stronger binding; quantity: normalised bound fraction
Target: Hepatocyte nuclear factor 3-alpha (Foxa1, Mus musculus, UniProt P35582, residues 1-468, full length assumed)
Setting: whole designed probe, mean of two concentrations, ends assumed
Residues (chain): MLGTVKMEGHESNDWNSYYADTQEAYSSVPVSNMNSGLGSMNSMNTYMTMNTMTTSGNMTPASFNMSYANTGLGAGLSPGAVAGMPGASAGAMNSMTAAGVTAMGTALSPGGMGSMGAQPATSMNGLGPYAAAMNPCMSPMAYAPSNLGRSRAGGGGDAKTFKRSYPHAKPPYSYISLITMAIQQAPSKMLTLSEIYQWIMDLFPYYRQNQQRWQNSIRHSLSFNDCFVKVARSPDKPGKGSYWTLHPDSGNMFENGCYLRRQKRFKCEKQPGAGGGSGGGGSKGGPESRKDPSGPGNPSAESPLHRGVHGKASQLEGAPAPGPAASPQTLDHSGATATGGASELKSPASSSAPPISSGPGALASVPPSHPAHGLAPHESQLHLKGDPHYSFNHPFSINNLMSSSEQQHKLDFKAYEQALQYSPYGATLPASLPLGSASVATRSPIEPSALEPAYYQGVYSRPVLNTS
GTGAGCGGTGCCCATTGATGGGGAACGCAAATGGAGGGTGAAAAAGTCAGATTTTAGATCAGAGAATGTCATACCCTGAAATCAGCATGTTCTTAGTAGGGACATAAAATGGGGTTGTATGTTGACACAGACTGAGAGTAGCTCAAAGTTCAGGAGCCTGAGGGAGAAAGATAAACTTAAGTAAAGTTTGATTAAGAAATATTTTATTTTAGGCTGAGCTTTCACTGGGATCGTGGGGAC: 0.219 ratio
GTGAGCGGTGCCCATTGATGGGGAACAAACTTCCTGTCCCATCACCCAGCATCAACACCATTAACCAGTCATGACTAATCCTGCCCCATCCACGTCCCCAGCCTTTCCCCGACTTCTCAAAATTGCTTTGAAACAAATCCCAGATATAATATCATTTCATTGTGAGGTTGTTGTGAGGATTAACTAAAAGCATGCCTATCATATGGGTCTCTAAAAGATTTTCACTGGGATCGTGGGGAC: 0.342 ratio
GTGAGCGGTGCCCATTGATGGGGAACATCTTCCCCCTCTTCCTTGCCCCACCAGCTCACCTTCCCGGGTTATTTGCAGATAGGAAAATAAATAAAGCCGGCATTCGTGATGAATCATGACGCGCATACTGCCAGAGCAAACAGATCTAACATGGTCCTTTGGCGACGCCAGGCTCCGGGAGAGCAAAGCACCGTGTCAGGGCCATGATCCGGGGTGGCCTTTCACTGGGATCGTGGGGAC: 0.395 ratio
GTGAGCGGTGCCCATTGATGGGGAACCTTACAGTACTGCAAGTTGCTCTAGGTGAGTCAGTGAGTGGTAAGTGAATGTGAAGGCCTAGGTTGTTACTGTGCTGTAGACTTTATAGACATTGTGTACTTAGACGACAATACATTTTTATTTTTATTATTATTTTTGAGACAGAATCTTGCTCTGTTGCCCAGACTAGAGTGCAGTGGTGCAATCTTGGCTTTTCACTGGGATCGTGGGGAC: 0.269 ratio
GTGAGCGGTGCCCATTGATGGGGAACAACGGGACTCTGGCTGGGCCAGGGCTCCTCGCCCAGGATGCCCGGGGAGAGGCCCCGTGTGAGGGCCTCACTCTGTGGGCTTAGGAATCCCAGAGTAATCTGATCAAGTTACCCGTGTCAGCCGGGCCGTCCACAACAGGCAGCCGCAGCGATTGAAGATGGGAATGTTCTTCTCAGAGATGACTCAGCTACTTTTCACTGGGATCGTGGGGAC: -0.0653 ratio
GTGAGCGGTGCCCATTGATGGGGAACAAAAAAGAAATACATTGAGTCTACTGACAAGATATCCACAACATGTTAAAAAGCCAAGTAGCAAAATATAGTATGCAATCTAATACTACGTAATGTAAACATGCAGATGGTACCTATTTAAGTGTATTTATCTTTCCAAACACACCACATATGTTTATACATGTGTGTGAAAGGGTATACATACACTCAACAGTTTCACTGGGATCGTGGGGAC: 0.457 ratio
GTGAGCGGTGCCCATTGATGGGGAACGGATTCTTTCATTATACAAATACAGATGTTATTTTTTAATTTCAGAAGAAATCATGATATATCAATCTATTGAGTGCTAACTAAAAGTTCCCTTTGTTTACTTAGCTTTCTCTTAGTTATAAGAAAGAAAAAGACCTCTTGCATGAAAATAGTACGTTGCAGGAAGAAATTGTCATGCTAAGACTGGAACTAGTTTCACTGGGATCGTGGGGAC: 0.521 ratio
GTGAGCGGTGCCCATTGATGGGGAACATCTTCCCCCTCTTCCTTGCCCCACCAGCTCACCTTCCCGGGTTATTTGCACAAAGGAAAATAAATAAAGCCGGCATTCGTTAACGCAGTTCACGCGCATACTGCTGTTTGCTCTGCATGAATCATGGTCCTTACGCGACGCCAGGCTCCGGGAGAGCAAAGCACCGTGTCAGGCGCATGATCCGGGGTGGCCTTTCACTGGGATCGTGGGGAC: 0.379 ratio

Set 4 — method: protein binding microarray; molecule type: double-stranded DNA, one strand shown; sample: in vitro; concentration: not given; relative to: not given; direction: higher = stronger binding; quantity: E-score
Target: Histone acetyltransferase KAT6A, winged helix 2, GST fusion (KAT6A, Homo sapiens, UniProt Q92794, residues 85-181)
Setting: 8-mer, flanks averaged, mean of 2 arrays, mostly near background
Target sequence (chain): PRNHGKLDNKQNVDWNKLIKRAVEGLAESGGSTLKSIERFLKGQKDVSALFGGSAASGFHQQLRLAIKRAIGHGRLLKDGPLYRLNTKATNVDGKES
ACCCTGTA: 0.0646
ATAAGGGG: -0.125
CTATCCGC: 0.208
ACCGTCAA: 0.0104
AGCCAGCA: -0.0447
ATAGTCCA: -0.0534
TGGGCCAA: -0.0216
TGCTTAAA: 0.0638
GAGAGGCA: 0.0157
AAAACGCG: 0.00103
CGAGCCTC: -0.0471
GGCGTCCA: 0.045
GGGACTGA: -0.0545
ATTCTGAG: -0.0846
TCAGAGCA: 0.047
ATAGCATA: 0.0711
ATGGAGGC: -0.0702
CGAACCGA: 0.267
CCGCATTC: 0.1
CTGTTTTA: -0.141
CCATGGCC: -0.0899
GTGGACAC: 0.0747
CATGGCGA: 0.0703
GTACGGGA: -0.077

Some of these lines once more (set 4):
CTATCCGC: 0.208
ACCGTCAA: 0.0104
AGCCAGCA: -0.0447
ATAGTCCA: -0.0534
TGGGCCAA: -0.0216
TGCTTAAA: 0.0638
GAGAGGCA: 0.0157
